# Experimental data gathered from unrelated publications.
# Several values in a cell are separate wells, animals, samples, runs or records. Numbers after ± are the reported error.
# APP: Amyloid-beta precursor protein (APP, Homo sapiens, UniProt P05067)
# APP amyloid-beta fibrils: Amyloid-beta precursor protein, amyloid-beta fibrils (APP, Homo sapiens, UniProt P05067)
# APP amyloid-beta insoluble aggregates: Amyloid-beta precursor protein, amyloid-beta insoluble aggregates (APP, Homo sapiens, UniProt P05067)
SMILES,target,assay,test system,setting,how to read,quantity,value
CC[C@H](C)[C@@H](C(=O)N[C@H](C(=O)N(N)[C@@H](Cc1ccc(O)cc1)C(=O)N[C@@H](CCCCN)C(N)=O)C(C)C)N(N)C(=O)[C@H](CCC(N)=O)NC(=O)[C@@H](NC(C)=O)C(C)C,APP,"aggregation, ThT fluorescence",,"up to 160 µM, added: APP 40 µM",,inhibition,no inhibition
CC[C@H](C)[C@H](NC(=O)[C@@H](NC(=O)[C@H](CCCCN)NC(=O)[C@@H](NC(=O)CNC(=O)[C@@H](N)CCCNC(=N)N)[C@@H](C)O)C(C)C)C(=O)N[C@@H](CC(C)C)C(=O)N[C@@H](Cc1c[nH]cn1)C(=O)N[C@@H](CC(C)C)C(N)=O,APP,"fibril formation, ThT fluorescence",,"1-fold of peptide, pH 7.4, room temperature, added: amyloid-beta 10 µM",relative to: untreated,aggregation half-time,106 ± 10%
Clc1ccc2c(c1)N(CCCN1CCN(CCn3cc(CN4CCCNCCN(Cc5cn(CCN6CCN(CCCN7c8ccccc8Sc8ccc(Cl)cc87)CC6)nn5)CCCNCC4)nn3)CC1)c1ccccc1S2,APP,"amyloid fibril formation, inhibitor, thioflavin T",,added: 2.5 µM Aβ42,,lowest significant inhibitory concentration,> 3 µM
CSCC[C@H](NC(=O)[C@@H](CCCCN)NC(=O)[C@H](CC(C)C)NC(=O)[C@@H](CC(N)=O)NC(=O)[C@H](CCSC)NC(=O)[C@H](NC(=O)[C@H](Cc1c[nH]c2ccccc12)NC(=O)CNC(=O)[C@H](CO)NC(=O)[C@H](Cc1ccc(O)cc1)NC(=O)[C@H](CCC(=O)O)NC(=O)[C@H](CC(N)=O)NC(=O)[C@H](CCSC)NC(=O)[C@@H](Cc1c[nH]c2ccccc12)NC(=O)[C@H](CO)NC(=O)[C@@H](CC(C)C)NC(=O)[C@H](CC(N)=O)NC(=O)[C@@H](CCSC)NC(=O)[C@H](CCC(=O)O)NC(=O)CNC(=O)[C@@H](N)CCCNC(=N)N)[C@H](C)O)C(=O)NCC(=O)N[C@@H](CCCNC(=N)N)C(=O)O,APP,"self-aggregation, inhibitor, thioflavin T fluorescence",,"10 µM APP to compound ratio 1:10, compound heated at 60 °C, added: thioflavin T 22 µM",,inhibition,~50%
CC[C@H](C)[C@H](NC(=O)[C@@H](NC(=O)[C@@H](NC(=O)[C@@H](NC(=O)[C@H](CCCCN)NC(=O)[C@H](CCC(=O)O)NC(=O)[C@H](C)N)C(C)C)C(C)C)C(C)C)C(=O)N[C@H](C(=O)N[C@@H](CCCCN)C(N)=O)[C@@H](C)O,APP,"fibril formation, ThT fluorescence",,"10 µM, 42 h, pH 7.4, equimolar to peptide, added: amyloid-beta 1-42 10 µM",relative to: untreated amyloid-beta,ThT fluorescence,61 ± 13%
CC(C)C[C@H](NC(=O)CCS[C@H]1O[C@H](CO)[C@@H](O)[C@H](O)[C@H]1O)C(=O)N1CCC[C@H]1C(=O)N[C@@H](Cc1ccccc1)C(=O)N[C@@H](Cc1ccccc1)C(=O)N[C@@H](CC(=O)O)C(=O)N[C@@H](CC(=O)O)C(=O)N[C@@H](C)C(=O)N[C@@H](Cc1c[nH]cn1)C(=O)N[C@@H](CCCCN)C(N)=O,"Amyloid-beta precursor protein, fibril (APP, Homo sapiens, UniProt P05067)","amyloid aggregation, inhibitor",,10 µM,,inhibition,73%
CCC1CC2C(C)=CC3C(=O)C=CCC3C=CC(C)=CC2C(=O)O1 (stereo not shown),APP amyloid-beta fibrils,"thioflavin T, measured: Aβ42 pre-formed fibrils",,500 µM,,fibril dissociation,29.8%
O=C1c2sc(-c3ccc(N4CCC(CO)CC4)nc3F)nc2CCN1c1cccnc1,APP amyloid-beta insoluble aggregates,radioligand filter binding,AD brain insoluble fraction,150 nM,higher = more binding,specific binding,1100 a.u. and 953 a.u.
COc1cc(/C=C/C(=O)C2=C(/C=C/c3ccc(O)c(OC)c3)NC(=S)NC2[c-]2cccc2)ccc1O.[Fe+2].c1cc[cH-]c1 (racemic),"Amyloid-beta precursor protein, Aβ1-40 fibrils (APP, Homo sapiens, UniProt P05067)",single-molecule localization microscopy,,"20 µM, 1 h, room temperature, added: amyloid beta 20 µM",,fibril length,1.28 ± 0.64 µm
CCCCCCCCCCCCCCCC(=O)OCC(CSC[C@H](N)C(=O)N[C@@H](CO)C(=O)N[C@@H](CCCCN)C(=O)N[C@@H](CCCCN)C(=O)N[C@@H](CCCCN)C(=O)N[C@@H](CCCCN)C(=O)NCCCCCC(=O)N[C@@H](CCCCN)C(=O)N[C@@H](CC(C)C)C(=O)N[C@H](C(=O)N[C@@H](Cc1ccccc1)C(=O)N[C@@H](Cc1ccccc1)C(=O)N[C@@H](Cc1ccc2ccccc2c1)C(=O)O)C(C)C)OC(=O)CCCCCCCCCCCCCCC (stereo partly shown),"Amyloid-beta precursor protein, fibrillar amyloid-beta (APP, Homo sapiens, UniProt P05067)",TEM,,"2.0 eq, 3 h, fibril 1, added: APP 20 µM",,fibril diameter,43.7 nm
CC[C@H](C)[C@H](NC(=O)[C@@H](NC(=O)[C@@H](NC(=O)[C@@H](NC(=O)[C@@H](N)CCCCN)C(C)C)C(C)C)C(C)C)C(=O)N[C@H](C(N)=O)[C@@H](C)O,APP,"fibril formation, ThT fluorescence",,"1-fold of peptide, pH 7.4, room temperature, added: amyloid-beta 10 µM",relative to: untreated,aggregation half-time,114 ± 15%
CCC1CC2C(C)=CC3C(=O)CCCC3C=CC(C)=CC2C(=O)O1 (stereo not shown),APP amyloid-beta fibrils,"thioflavin T, measured: Aβ42 pre-formed fibrils",,50 µM,,fibril dissociation,20.3%
CC[C@H](C)[C@H](NC(=O)[C@H](CCC(N)=O)NC(=O)[C@@H](NC(=O)[C@@H]1CCCN1[C@@H]1CN(C(=O)[C@H](CCCCN)NC(=O)[C@H](CC(N)=O)NC(=O)[C@@H](NC(=O)[C@@H](NC(=O)[C@H](CCC(N)=O)NC(=O)[C@@H](N)C(C)C)[C@@H](C)CC)[C@@H](C)CC)CC[C@H]1NS(=O)(=O)c1ccc(C)cc1)C(C)C)C(=O)N[C@H](C(=O)N[C@@H](Cc1ccc(O)cc1)C(=O)N[C@@H](CCCCN)C(N)=O)C(C)C,APP,"fibril formation, ThT fluorescence",,"1-fold of peptide, pH 7.4, room temperature, added: amyloid-beta 10 µM",relative to: untreated,aggregation half-time,127 ± 15%
O=c1cc(/C=C/c2ccc(N3CCCC3)cc2)oc(/C=C/c2ccc(N3CCCC3)cc2)c1,APP,"binding, fluorescence",,"2 µM, 7.4 min, pH 10, Abeta pre-incubated 5 h, added: 20 µM pre-incubated Abeta species",,fluorescence enhancement,2.6 fold
O=C1c2sc(-c3ccc(N4CCC(F)C4)nc3F)nc2CCN1c1cccnc1 (stereo not shown),APP amyloid-beta insoluble aggregates,radioligand filter binding,AD brain insoluble fraction,25 nM,higher = more binding,specific binding,78 a.u. and 110 a.u.
CC[C@H](C)[C@H](NC(=O)[C@@H](NC(=O)[C@H](CCCCN)NC(=O)[C@@H](N)[C@@H](C)O)C(C)C)C(=O)N[C@@H](CC(C)C)C(=O)N[C@@H](Cc1c[nH]cn1)C(N)=O,APP,"fibril formation, ThT fluorescence",,"1-fold of peptide, pH 7.4, room temperature, added: amyloid-beta 10 µM",relative to: untreated,aggregation half-time,84 ± 8%

# For quick reference, copied from above:
SMILES,target,assay,test system,setting,how to read,quantity,value
CSCC[C@H](NC(=O)[C@@H](CCCCN)NC(=O)[C@H](CC(C)C)NC(=O)[C@@H](CC(N)=O)NC(=O)[C@H](CCSC)NC(=O)[C@H](NC(=O)[C@H](Cc1c[nH]c2ccccc12)NC(=O)CNC(=O)[C@H](CO)NC(=O)[C@H](Cc1ccc(O)cc1)NC(=O)[C@H](CCC(=O)O)NC(=O)[C@H](CC(N)=O)NC(=O)[C@H](CCSC)NC(=O)[C@@H](Cc1c[nH]c2ccccc12)NC(=O)[C@H](CO)NC(=O)[C@@H](CC(C)C)NC(=O)[C@H](CC(N)=O)NC(=O)[C@@H](CCSC)NC(=O)[C@H](CCC(=O)O)NC(=O)CNC(=O)[C@@H](N)CCCNC(=N)N)[C@H](C)O)C(=O)NCC(=O)N[C@@H](CCCNC(=N)N)C(=O)O,APP,"self-aggregation, inhibitor, thioflavin T fluorescence",,"10 µM APP to compound ratio 1:10, compound heated at 60 °C, added: thioflavin T 22 µM",,inhibition,~50%
